# Measurements pooled from the literature.
# Each line is one published result; not all experiments were run side by side.
Structure (SMILES),assay,test system,setting,scale,adverse event incidence
NCCONC(=O)[C@@H]1CC[C@@H]2CN1C(=O)N2OS(=O)(=O)O,refers to: increased vitamin C,healthy Chinese men,"intravenous, 2 g, treatment-emergent",,12.5%
Cc1c(Cl)c(C)[n+]([O-])c(Cl)c1-c1noc(-c2cc(O)c(O)c([N+](=O)[O-])c2)n1,refers to: Moderate severity,healthy Chinese subjects,"oral, 25 mg",,0%
Cc1ccc(Sc2ccccc2N2CCNCC2)c(C)c1,any TEAE,healthy adult men,"oral, 40 mg single dose, 10 days",,50%
O=C1CCc2ccc(OCCCCN3CCN(c4cccc(Cl)c4Cl)CC3)cc2N1,refers to: Rigidity,"genotyped patients, CYP2D6 intermediate metabolizers","dose not given, long-acting oral or depot",,8.3%
CC[C@H](C)CCCCC(=O)N[C@@H](CCN)C(=O)N[C@H](C(=O)N[C@@H](CCN)C(=O)N[C@H]1CCNC(=O)[C@H]([C@@H](C)O)NC(=O)[C@H](CCN)NC(=O)[C@H](CCN)NC(=O)[C@H](CC(C)C)NC(=O)[C@@H](Cc2ccccc2)NC(=O)[C@H](CCN)NC1=O)[C@@H](C)O,refers to: gastrointestinal disorders,all subjects,"intravenous, 0.75 mg/kg",,86.4%
CC[C@H](C)[C@H](NC(=O)[C@H](Cc1ccccc1)NC(=O)[C@H](CCC(=O)O)NC(=O)[C@H](CCCCNC(=O)COCCOCCNC(=O)COCCOCCNC(=O)CC[C@H](NC(=O)CCCCCCCCCCCCCCCCC(=O)O)C(=O)O)NC(=O)[C@H](C)NC(=O)[C@H](C)NC(=O)[C@H](CCC(N)=O)NC(=O)CNC(=O)[C@H](CCC(=O)O)NC(=O)[C@H](CC(C)C)NC(=O)[C@H](Cc1ccc(O)cc1)NC(=O)[C@H](CO)NC(=O)[C@H](CO)NC(=O)[C@@H](NC(=O)[C@H](CC(=O)O)NC(=O)[C@H](CO)NC(=O)[C@@H](NC(=O)[C@H](Cc1ccccc1)NC(=O)[C@@H](NC(=O)CNC(=O)[C@H](CCC(=O)O)NC(=O)C(C)(C)NC(=O)[C@@H](N)Cc1cnc[nH]1)[C@@H](C)O)[C@@H](C)O)C(C)C)C(=O)N[C@@H](C)C(=O)N[C@@H](Cc1c[nH]c2ccccc12)C(=O)N[C@@H](CC(C)C)C(=O)N[C@H](C(=O)N[C@@H](CCCNC(=N)N)C(=O)NCC(=O)N[C@@H](CCCNC(=N)N)C(=O)NCC(=O)O)C(C)C,refers to: Serious adverse events,type 2 diabetes patients,dose not given,relative to: subjects,6.7%
FC(F)(F)c1ccc(CNc2ccc(Cc3c[nH]c4ncc(Cl)cc34)cn2)cn1,refers to: Constipation,patients with advanced solid tumours,"oral, dose not given, all grades, possibly related to drug",,11%
Cc1c(C(=O)O)ccc2c3n(nc12)[C@@H]1[C@H](C3)N(CC2CC2)[C@@]2(C(=O)Nc3cc(Cl)ccc32)[C@H]1c1cccc(Cl)c1F,"phase Ia trial, refers to: Neutropenia",cancer patients,"oral, dose not given, all patients grade ≥3",,24.1%
CC(C)n1c(Nc2cccnc2)nc2cnc(Nc3ccc(N4CCN(C)CC4)cc3)nc21,refers to: Hypercalcemia,healthy male subjects,"oral, 150 mg, together with: rifampin",,0%
CC(=O)O[C@H]1C(=O)[C@@]2(C)[C@H]([C@H](OC(=O)c3ccccc3)[C@]3(O)C[C@H](OC(=O)[C@H](O)[C@@H](NC(=O)c4ccccc4)c4ccccc4)C(C)=C1C3(C)C)[C@]1(OC(C)=O)CO[C@@H]1C[C@@H]2O,refers to: Pruritus,patients with advanced solid tumours,"intravenous, dose not given, grade 1 and 2, possibly related to drug",,11%

# Excerpt of the above:
Structure (SMILES),assay,test system,setting,scale,adverse event incidence
Cc1ccc(Sc2ccccc2N2CCNCC2)c(C)c1,any TEAE,healthy adult men,"oral, 40 mg single dose, 10 days",,50%
O=C1CCc2ccc(OCCCCN3CCN(c4cccc(Cl)c4Cl)CC3)cc2N1,refers to: Rigidity,"genotyped patients, CYP2D6 intermediate metabolizers","dose not given, long-acting oral or depot",,8.3%
